Results gathered from unrelated publications.
± gives the spread as reported.

Structure (SMILES) | target | test | system | setting | how to read | quantity | result
CC(C)[C@@H](O)CC[C@@H](C)[C@H]1CC[C@H]2[C@@H]3CC=C4C[C@@H](O)CC[C@]4(C)[C@H]3CC[C@]12C | Glutamate NMDA receptor; GRIN1/GRIN2B (GRIN1/GRIN2B, Homo sapiens, UniProt Q05586+Q13224, F754A) | ion current, positive allosteric modulator, two-electrode voltage clamp | Xenopus oocytes | 10 µM, GluN1-F754A mutant, together with: 100 µM glutamate and glycine | baseline: absence of compound | current potentiation | 123 ± 7.1%
COc1cc(N)c(Cl)cc1C(=O)NC1CN2CCC1CC2 (stereo not drawn) | G-protein coupled receptor 171 (GPR171, Homo sapiens, UniProt O14626) | β-arrestin recruitment, TANGO luminescence, item: GPR171 | – | concentration not given | baseline: basal luminescence | log2 fold change | 0.476
C[C@H]1CN(c2n[nH]c3nc(N[C@H]4CC[C@H](NS(=O)(=O)CCC(F)(F)F)CC4)ncc23)CCO1 | KHSRP (Homo sapiens, UniProt Q92945) | inhibitor, Kinobeads competition profiling | – | 0.032 µM | baseline: vehicle | relative abundance | 0.98
COc1ccc(N2C(=O)N(c3c(C)cccc3Cl)Cc3cnc(Nc4ccc(C5CCN(C)CC5)cc4OC)nc32)nc1 | CSNK1G3 (Homo sapiens, UniProt Q9Y6M4) | kinase activity, inhibitor | – | 0.5 µM, kinase CK1-GAMMA3 | – | inhibition | 0.92%
CC[C@H](C)[C@@H]1NC(=O)[C@H](Cc2c[nH]c3ccccc23)NC(=O)[C@H](Cc2ccc(O)cc2)NC(=O)CSC[C@@H](C(N)=O)NC(=O)[C@H]([C@@H](C)O)NC(=O)[C@H](CO)NC(=O)[C@H](C(C)C)NC(=O)[C@H](Cc2ccc(O)cc2)NC(=O)[C@H](CCCNC(=N)N)NC(=O)[C@H](Cc2ccc(O)cc2)NC(=O)[C@H]([C@@H](C)O)NC(=O)[C@H]([C@@H](C)O)NC(=O)[C@H](Cc2c[nH]c3ccccc23)NC(=O)[C@H](CO)NC(=O)[C@H](CC(N)=O)NC(=O)[C@H](CO)NC1=O | Vacuolar protein sorting-associated protein 26A/Vacuolar protein sorting-associated protein 35, Vps35 residues 1–172 (Homo sapiens, UniProt O75436+Q96QK1) | ITC | – | 25 °C | – | ΔH | -6.3 ± 2.5 kcal/mol
CC(C)(C)C(=O)C1C(=O)c2ccccc2C1=O | NR1H3 (Homo sapiens, UniProt Q13133) | – | – | concentration not given | – | activity | inactive
Nc1ncnc2c1ncn2[C@@H]1O[C@H](COP(=O)(O)O)[C@@H](O)[C@H]1O | Thermonuclease (nuc, Staphylococcus aureus, UniProt P00644) | folding kinetics | – | unit not given | baseline: prAp | phi value | 0.4 ± 0.08
CN[C@@H]1C[C@H]2O[C@@](C)([C@@H]1OC)n1c3ccccc3c3c4c(c5c6ccccc6n2c5c31)C(=O)NC4 | CDC2-like kinase 1 (Trypanosoma brucei brucei, UniProt Q382U0) | kinase activity, ADP-Glo | – | 0.01953 µM | – | remaining activity | 84.2%
CCCCC/C=C\C/C=C\C/C=C\C/C=C\CCCC(=O)NCCO | Trpv1 (Mus musculus, UniProt Q704Y3, S513T) | ion current, agonist, whole-cell patch clamp | – | S513T | – | Hill coefficient | 3.08 ± 0.37
O=C(c1ccc(Cl)cc1)N1CCN2C(=O)N(OC(=O)N3CCOc4ccccc43)C(=O)C2C1 (stereo not drawn) | Platelet-activating factor acetylhydrolase IB subunit alpha1 (Homo sapiens, UniProt Q15102) | enzyme activity, inhibitor, MS-based ABPP | SW-620 in situ | 10 µM, 2 h, 37 °C | baseline: compound over DMSO, lower = stronger inhibition | median ratio | 1.05
COc1cc2nccc(Oc3ccc(NC(=O)c4cc5c(n(-c6ccccc6)c4=O)CCCC5=O)nc3)c2cc1OC | MST1R (Homo sapiens, UniProt Q04912) | cell viability, CellTiter-Glo | Ba/F3 expressing recombinant kinase | – | baseline: MST1R IC50 over AXL IC50 | selectivity ratio | > 100
Nc1ncnc2c1ncn2[C@@H]1O[C@H](COP(=O)(O)OP(=O)(O)OP(=O)(O)O)[C@@H](O)[C@H]1O | axonemal dynein ATPase | substrate | Triton-extracted reactivated sperm | oligomycin-insensitive ATPase | – | Km | 0.15 mM
CNC(C)Cc1ccc2n[se]nc2c1 (stereo not drawn) | HTR2C (Homo sapiens, UniProt P28335) | agonist | – | – | baseline: 5-HT | Emax | 65.9 ± 11.5%
O=C[C@H](O)COP(=O)(O)O | TPI1 (Saccharomyces cerevisiae, UniProt P00942, Y208F) | substrate, GPDH/NADH-coupled | – | pH 4.9, 25 °C | – | Km | ~35 mM
O=C(O)Cc1c[nH]cn1 | SLC6A6 (Homo sapiens, UniProt P31641, Y138A) | binding, microscale thermophoresis | – | 977 nM, room temperature, together with: 50 nM labelled protein | higher = more binding | normalised MST signal | 0.0149
[2H]c1c([2H])c([C@]2([2H])CCCN2C(=O)C(C)(C)Oc2ccc3cn[nH]c3c2)c([2H])c([2H])c1C([2H])([2H])[2H] | CSNK1G1 (Homo sapiens, UniProt Q9HCP0) | KINOMEscan | – | 1 µM | baseline: DMSO control | remaining binding | 55%
COc1cc(O)cc(/C=C/c2ccc(O)cc2)c1 | O-methyltransferase (Sorghum bicolor, UniProt A0A1B6PFV1) | – | – | concentration not given, together with: SAH+ | – | ΔG of binding | -9.4 kcal/mol
COc1ccc(Nc2nn3c(-c4ccccc4)ccnc3c2C(=O)Nc2ccc(Cl)cc2)cc1 | α-glucosidase | SDS-PAGE | – | concentration not given, concentration equal to IC50 | – | decrease in α-glucosidase band quantity | 68.9%
CN1CCN(c2cc(-c3ccncc3)c(-c3ccc4ccccc4c3)nn2)CC1 | HRH2 (Homo sapiens, UniProt P25021) | agonist, FLIPR | – | 12.5 µM | – | activation | -1%
O=c1c2ccccc2oc2cc(OCCCCc3ccccc3)ccc12 | ache (Electrophorus electricus, UniProt O42275) | enzyme activity | – | 0.36 µM, together with: substrate 1.73 mM | higher = faster reaction | reaction velocity | 0.0016 a.u.
CC1=C(C(=O)O)N2C(=O)[C@@H](NC(=O)[C@H](N)c3ccccc3)[C@H]2SC1 | Penicillin-binding protein 2X (Streptococcus pneumoniae R6, UniProt P59676) | inhibitor | Streptococcus pneumoniae | – | – | kinact/KI | 360 ± 210 M⁻¹ s⁻¹
CN(C(=O)n1cnc(-c2ccc[n+]([O-])c2)c1)C1CCCCC1 | Monoacylglycerol lipase ABHD6 (Abhd6, Rattus norvegicus, UniProt Q5XI64) | enzyme activity, ABPP | rat, brain | oral, 100 mg/kg/day, 28 days | baseline: vehicle | fold change | -18.5
COc1cc(Nc2ncc(F)c(Nc3ccc4c(n3)NC(=O)C(C)(C)O4)n2)cc(OC)c1OC | MAPK15 (Homo sapiens, UniProt Q8TD08) | binding, KINOMEscan | – | 10 µM, ERK8 kinase | – | inhibition | 89%
CCCCCCCCCC(=O)NC1CCCC1 | qscR (Pseudomonas aeruginosa, UniProt G3XD77) | ligand binding, FRET displacement | intact cells | apparent affinity | – | K0.5 | 462 nM
O=c1oc(-c2cccc([N+](=O)[O-])c2)ns1 | PSMB6 (Homo sapiens, UniProt P28072) | enzyme inactivation, inhibitor | human PA28-activated proteasome | – | – | kobs/[I] | 1.01 M⁻¹ s⁻¹
CN(C(=O)n1cnc(-c2ccc[n+]([O-])c2)c1)C1CCCCC1 | CX3CR1 (Homo sapiens, UniProt P49238) | radioligand binding, inhibitor | – | 50 µM | – | inhibition | 10%
Nc1nc2c(ncn2[C@@H]2O[C@@H]3COP(O)(=S)O[C@H]3[C@H]2O)c(=O)[nH]1 (single isomer, unassigned) | anti-cGMP antibody | antibody binding, competitive cGMP EIA | – | concentration not given, acetylated samples | baseline: EC50 cGMP over EC50 cpd, higher = stronger binding | relative binding affinity | 0.0027
